Results of several laboratories.
Several values in a cell are separate wells, animals, samples, runs or records. ± marks the error that the study gave. In brackets after ≈: the same amount, converted by molar mass.

`CN[C@@H]1[C@H](O)[C@H](NC)[C@H]2O[C@]3(O)[C@H](O[C@@H]2[C@H]1O)O[C@H](C)C[C@]3(O)CNCc1ccc(OC(F)(F)F)cc1` — result for “inhibition zone diameter”: 8 mm (Legionella pneumophila; ATCC 33153; 40 µg per disc, 48 h).
With `CN1CCN(C(=O)N[C@@H](Cc2ccccc2)C(=O)N[C@H](/C=C/S(=O)(=O)c2ccccc2)CCc2ccccc2)CC1` the IC50 was 0.0019 ± 0.00016 µM (Marburg marburgvirus; viral entry; HEK-293T; pseudovirus).
For `CC[C@H](C)[C@H](NC(=O)[C@H](CCCCN)NC(=O)[C@H](CCCCN)NC(=O)[C@H](CC(C)C)NC(=O)[C@H](Cc1c[nH]c2ccccc12)NC(=O)CN)C(=O)NCC(=O)N[C@@H](CCCCN)C(=O)N[C@@H](CCCCN)C(=O)N[C@H](C(=O)N[C@@H](CCC(=O)O)C(=O)N[C@@H](CCCNC(=N)N)C(=O)N[C@H](C(=O)NCC(=O)N[C@@H](CCC(N)=O)C(=O)N[C@@H](Cc1c[nH]cn1)C(=O)N[C@H](C(=O)N[C@@H](CCCNC(=N)N)C(=O)N[C@@H](CC(=O)O)C(=O)N[C@@H](C)C(=O)N[C@H](C(=O)N[C@H](C(=O)N[C@@H](CCC(N)=O)C(=O)N[C@H](C(=O)N[C@H](C(=O)NCC(=O)N[C@H](C(=O)N[C@@H](C)C(=O)N[C@@H](CCC(N)=O)C(=O)N[C@@H](CCC(N)=O)C(=O)N[C@@H](C)C(=O)N[C@@H](C)C(=O)N[C@@H](CC(N)=O)C(=O)N[C@H](C(=O)N[C@@H](C)C(=O)N[C@@H](C)C(=O)N[C@H](C(=O)N[C@@H](CC(C)C)C(=O)N[C@@H](CCCCN)C(N)=O)[C@@H](C)O)C(C)C)C(C)C)[C@@H](C)CC)[C@@H](C)O)[C@@H](C)CC)[C@@H](C)O)[C@@H](C)O)C(C)C)[C@@H](C)CC`, the MIC was 0.25 mg/L (Acinetobacter baumannii; broth microdilution; RKI 19/09, CAMHB with 10% mouse serum).
`O=C(C=Cc1ccc(O)c(O)c1)OC1CC(O)(C(=O)O)CC(OC(=O)C=Cc2ccc(O)c(O)c2)C1O` (stereo not drawn) has an inhibition of 0% (Severe acute respiratory syndrome coronavirus 2; cytopathic effect, inhibitor; Vero C1008; 50 µM).
`COC(=O)c1ncn(C2OC(COC(=O)c3ccccc3)C(OC(=O)c3ccccc3)C2OC(=O)c2ccccc2)c1C(=O)OC` (stereo not drawn) gave an IC50 of 46 µg/mL (Mammarenavirus lassaense; viral replication, inhibitor; Vero; 48 h).
For `O=C(O)CCCC1C2CCCN3CCCC(CN1S(=O)(=O)c1ccc(Cl)cc1)C23` (stereo not drawn), the selectivity index was 6.62 (Ebola virus; EBOV GP pseudotyped HIV; relative to: CC50 over IC50).
`CC(=O)OCCOCn1cnc(C#N)c1C#N` has an IC50 of 10 µg/mL (Mammarenavirus lassaense; viral replication, inhibitor; Vero; 48 h).
`COc1cccc(NC(=S)NNC(=O)c2ccccn2)n1`: “upE transcript level” “decreased” (MERS-CoV; viral replication, item: upE gene; concentration not given).
For `O=[N+]([O-])c1ccc(-n2nc(-c3ccc(F)cc3)cc2-c2ccc(F)cc2)c([N+](=O)[O-])c1`, “viral titre reduction” read about 67% (Japanese encephalitis virus; plaque; SA14-14-2; 1 µM, 72 h).
The IC50 of `O=C(O)c1ncn(COCCOCc2ccccc2)c1C(=O)O` is reported as 18 µg/mL (Mammarenavirus lassaense; viral replication, inhibitor; Vero; 48 h).
The potency improvement of `CCN(CC)Cc1cc(Nc2ccnc3cc(I)ccc23)ccc1O` is reported as 3.3 fold (Ebola virus; viral infection; GFP reporter; relative to: amodiaquine).
`C#CCN(Cc1ccc2[nH]c(C)nc(=O)c2c1)c1ccc(C(=O)N[C@@H](CCC(=O)O)C(=O)O)cc1` has an MIC of over 100 µM (Mycobacterium tuberculosis; pptH knockout).
`C[N+]1=C2C(c3ccc([N+](=O)[O-])cc3)=[N+]([O-])c3ccccc3N2CCC1` has an MIC of 0.125 to 2 mg/L (Clostridium perfringens).
`Cc1ccc(NS(=O)(=O)c2c(C(=O)N3CCCCCC3)c(C)n(C)c2C)c(Cl)c1` gave a relative infection of 96% and 101% (Monkeypox virus; Vero C1008, wild type; 0.04 µM, 72 h; relative to: untreated).
The IC50 of `Cn1cnc(Cn2c(=O)[nH]/c(=N\c3cc4cn(C)nc4cc3Cl)n(Cc3cc(F)c(F)cc3F)c2=O)n1` is reported as 58.3 µM (canine coronavirus; viral replication, qRT-PCR; CRFK; 48 h).
`C[N+]1=C2C(c3ccccc3)=[N+]([O-])c3ccccc3N2CCC1` gave an MIC90 of 32 µg/mL (Clostridium perfringens).
`CC(C)CC(C(=O)N1CC2(CC1C#N)C(=O)Nc1ccccc12)N(C)C(=O)c1cc2c(F)cc(F)c(F)c2[nH]1` (stereo not drawn) gave an inhibition of 99.6% (SARS-CoV-2; viral replication, infectious virus; Vero E6; 1.111 µM).
With `[O-][N+]1=C(c2ccccc2)C2=NCCCN2c2ncccc21` the MIC50 was 0.5 µg/mL (≈ 1.8 µM) (Clostridium perfringens; microbial growth).
For `CN1CCN(CCCN2c3ccccc3Sc3ccc(C(F)(F)F)cc32)CC1`, the EC90 was 8 µM (SARS coronavirus; Vero 76, Urbani).
The MIC90 of `[O-][N+]1=C(c2ccccc2)C2=NCCN2c2ccccc21` is reported as 1 µg/mL (≈ 3.8 µM) (Clostridium perfringens).
`COC(=O)c1ncn(C2CC(O)C(CO)O2)c1C(=O)OC` (stereo not drawn) gave an IC50 of 32 µg/mL (Zaire ebolavirus; viral replication, inhibitor; Vero; 72 h).

Excerpt of the above:
`Cc1ccc(NS(=O)(=O)c2c(C(=O)N3CCCCCC3)c(C)n(C)c2C)c(Cl)c1` gave a relative infection of 96% and 101% (Monkeypox virus; Vero C1008, wild type; 0.04 µM, 72 h; relative to: untreated).
The IC50 of `Cn1cnc(Cn2c(=O)[nH]/c(=N\c3cc4cn(C)nc4cc3Cl)n(Cc3cc(F)c(F)cc3F)c2=O)n1` is reported as 58.3 µM (canine coronavirus; viral replication, qRT-PCR; CRFK; 48 h).
`C[N+]1=C2C(c3ccccc3)=[N+]([O-])c3ccccc3N2CCC1` gave an MIC90 of 32 µg/mL (Clostridium perfringens).
`CC(C)CC(C(=O)N1CC2(CC1C#N)C(=O)Nc1ccccc12)N(C)C(=O)c1cc2c(F)cc(F)c(F)c2[nH]1` (stereo not drawn) gave an inhibition of 99.6% (SARS-CoV-2; viral replication, infectious virus; Vero E6; 1.111 µM).
